# Results of several laboratories.
# Each line is one published result; not all experiments were run side by side. “And” joins repeats or separate records; there may be more than shown. Numbers after ± are the reported error.
# PTGES3: PTGES3 (Homo sapiens, UniProt Q15185)
# Chain of UniProt Q15185 (whole entry, looked up): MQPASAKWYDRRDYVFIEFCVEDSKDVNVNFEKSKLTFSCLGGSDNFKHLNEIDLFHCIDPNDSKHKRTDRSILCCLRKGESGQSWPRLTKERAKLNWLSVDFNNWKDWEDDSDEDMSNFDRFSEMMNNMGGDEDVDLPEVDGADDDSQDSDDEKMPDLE
# T1: xseA/xseB 1-456;1-80 H238A (Escherichia coli); chain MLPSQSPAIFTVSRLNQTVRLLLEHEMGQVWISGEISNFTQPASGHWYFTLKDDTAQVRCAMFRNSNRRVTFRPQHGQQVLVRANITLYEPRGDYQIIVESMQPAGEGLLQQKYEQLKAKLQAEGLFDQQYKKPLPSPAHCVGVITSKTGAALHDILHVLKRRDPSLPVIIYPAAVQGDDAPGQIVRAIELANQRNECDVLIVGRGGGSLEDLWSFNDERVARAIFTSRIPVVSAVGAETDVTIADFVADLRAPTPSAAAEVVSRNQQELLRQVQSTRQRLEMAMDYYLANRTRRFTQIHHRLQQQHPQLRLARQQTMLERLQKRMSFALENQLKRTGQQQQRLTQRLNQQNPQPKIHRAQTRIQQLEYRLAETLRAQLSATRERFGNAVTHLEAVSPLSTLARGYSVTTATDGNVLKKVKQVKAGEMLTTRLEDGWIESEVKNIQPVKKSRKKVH; chain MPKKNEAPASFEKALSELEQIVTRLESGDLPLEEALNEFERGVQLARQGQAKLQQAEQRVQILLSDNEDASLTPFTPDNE
# Chain of UniProt O94956 (whole entry, looked up): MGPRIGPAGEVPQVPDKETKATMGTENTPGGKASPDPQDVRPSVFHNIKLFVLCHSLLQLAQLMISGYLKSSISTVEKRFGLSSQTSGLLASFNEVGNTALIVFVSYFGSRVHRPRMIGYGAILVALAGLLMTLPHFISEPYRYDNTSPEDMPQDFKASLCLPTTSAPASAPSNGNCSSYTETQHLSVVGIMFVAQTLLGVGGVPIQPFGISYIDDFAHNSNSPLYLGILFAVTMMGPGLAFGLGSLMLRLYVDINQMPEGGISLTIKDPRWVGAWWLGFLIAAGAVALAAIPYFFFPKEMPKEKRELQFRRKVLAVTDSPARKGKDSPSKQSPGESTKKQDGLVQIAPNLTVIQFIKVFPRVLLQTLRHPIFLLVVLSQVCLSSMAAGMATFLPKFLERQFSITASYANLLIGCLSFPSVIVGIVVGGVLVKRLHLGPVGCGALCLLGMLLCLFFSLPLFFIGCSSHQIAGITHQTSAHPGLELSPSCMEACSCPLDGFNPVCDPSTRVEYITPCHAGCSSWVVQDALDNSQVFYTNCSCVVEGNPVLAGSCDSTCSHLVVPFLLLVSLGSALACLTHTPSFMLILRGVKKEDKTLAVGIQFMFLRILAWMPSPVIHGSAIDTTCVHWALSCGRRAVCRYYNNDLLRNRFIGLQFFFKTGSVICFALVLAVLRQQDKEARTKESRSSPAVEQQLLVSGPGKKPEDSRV
# Chain of UniProt Q92887 (whole entry, looked up): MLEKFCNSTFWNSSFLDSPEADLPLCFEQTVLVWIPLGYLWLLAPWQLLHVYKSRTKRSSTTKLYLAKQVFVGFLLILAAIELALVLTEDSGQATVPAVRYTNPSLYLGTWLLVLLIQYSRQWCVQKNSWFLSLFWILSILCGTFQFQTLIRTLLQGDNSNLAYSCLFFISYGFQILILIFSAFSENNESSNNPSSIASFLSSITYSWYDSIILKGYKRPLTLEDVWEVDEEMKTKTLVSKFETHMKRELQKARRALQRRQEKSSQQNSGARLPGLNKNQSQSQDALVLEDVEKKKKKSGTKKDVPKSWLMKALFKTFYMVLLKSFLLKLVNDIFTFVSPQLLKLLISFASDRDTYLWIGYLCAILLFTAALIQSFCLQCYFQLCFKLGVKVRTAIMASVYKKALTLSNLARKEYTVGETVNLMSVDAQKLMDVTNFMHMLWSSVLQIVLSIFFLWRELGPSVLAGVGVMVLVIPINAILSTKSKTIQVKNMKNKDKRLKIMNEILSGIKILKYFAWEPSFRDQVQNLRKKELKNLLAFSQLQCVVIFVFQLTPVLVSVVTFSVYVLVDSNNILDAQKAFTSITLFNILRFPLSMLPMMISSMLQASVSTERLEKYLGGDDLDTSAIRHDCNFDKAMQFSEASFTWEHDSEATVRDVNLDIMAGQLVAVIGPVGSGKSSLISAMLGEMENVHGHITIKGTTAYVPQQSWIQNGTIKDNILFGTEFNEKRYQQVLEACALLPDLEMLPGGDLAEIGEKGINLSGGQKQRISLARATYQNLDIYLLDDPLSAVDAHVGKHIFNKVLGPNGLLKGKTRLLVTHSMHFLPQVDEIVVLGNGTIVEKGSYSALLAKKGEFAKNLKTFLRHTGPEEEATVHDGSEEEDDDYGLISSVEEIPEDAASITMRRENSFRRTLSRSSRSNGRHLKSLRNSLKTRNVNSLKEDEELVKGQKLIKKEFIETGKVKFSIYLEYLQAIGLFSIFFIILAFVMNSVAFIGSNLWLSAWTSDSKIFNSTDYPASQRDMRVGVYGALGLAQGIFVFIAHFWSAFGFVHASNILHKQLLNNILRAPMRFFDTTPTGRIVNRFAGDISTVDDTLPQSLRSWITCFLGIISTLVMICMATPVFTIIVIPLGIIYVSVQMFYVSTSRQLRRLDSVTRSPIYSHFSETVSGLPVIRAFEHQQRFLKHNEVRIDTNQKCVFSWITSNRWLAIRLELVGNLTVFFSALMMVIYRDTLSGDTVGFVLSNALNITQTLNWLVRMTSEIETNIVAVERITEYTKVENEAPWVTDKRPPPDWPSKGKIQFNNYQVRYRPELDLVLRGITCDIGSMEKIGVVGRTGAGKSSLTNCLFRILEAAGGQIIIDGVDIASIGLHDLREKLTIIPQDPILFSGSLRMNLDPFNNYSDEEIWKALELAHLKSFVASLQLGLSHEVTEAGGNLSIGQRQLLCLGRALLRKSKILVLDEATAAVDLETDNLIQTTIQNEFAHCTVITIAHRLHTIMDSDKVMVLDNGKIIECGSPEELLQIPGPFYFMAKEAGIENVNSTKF
Substance,target or system,test,system,conditions,quantity,value
CC(C)C[C@H](NC(=O)[C@H](Cc1ccc(O)cc1)NC(=O)[C@@H](CCCNC(=N)N)NC(=O)[C@@H](CO)NC(=O)[C@H](Cc1ccccc1)NC(=O)[C@H](CC1CCCCC1)NC(=O)[C@H](CC(=O)O)NC(=O)CN1CCN(CC(=O)O)CCN(CC(=O)O)CCN(CC(=O)O)CC1)C(=O)N[C@@H](Cc1c[nH]c2ccccc12)C(=O)N[C@@H](CO)C(=O)O [copper-64 labelled],,,"human, muscle","concentration not given, 24 h",activity concentration,186 Bq/mL and 209 Bq/mL and 166 Bq/mL and 165 Bq/mL and 230 Bq/mL and 235 Bq/mL
"ABCC2 (Homo sapiens, UniProt Q92887)",O=C(c1ccc(OCCN2CCCCC2)cc1)c1c(-c2ccc(O)cc2)sc2cc(O[C@@H]3O[C@H](C(=O)O)[C@@H](O)[C@H](O)[C@H]3O)ccc12,steady-state kinetics,Sf9 vesicles,"pH 7, 37 °C, not purified, with: ATP",Km,18.6 µM
"DNA 1 GGATGGGACGTGGGCAGTAAGATGGACAGAAGACAGGTAGAATGACGGGTGCAGGGTAAA / DNA 2 TTTACCCTGCACCCGTCATTCTACCTGTCTTCTGT / DNA 3 CCATCTTACTGCCCACGTCCCATCC (dsDNA; nicked, blunt ends)","T1, xseA/xseB 1-456;1-80 H238A (Escherichia coli)",mass photometry,double-stranded DNA,,binding,binds
CC(C)C[C@@H](NC(=O)[C@@H](CC(C)C)NC(=O)[C@@H](CC(=O)O)NC(=O)[C@@H](CC(C)C)NC(=O)[C@@H](CC(C)C)NC(=O)[C@@H](CC(C)C)NC(=O)[C@H](NC(=O)[C@@H](CC(=O)O)NC(=O)[C@H](NC(=O)[C@H]1CCCN1C(=O)[C@@H](Cc1ccccc1)NC(=O)[C@@H](CC(C)C)NC(=O)[C@@H](CC(C)C)NC(=O)[C@@H](CC(=O)O)NC(=O)[C@@H](CC(C)C)NC(=O)[C@@H](Cc1ccc(O)cc1)NC(=O)[C@@H](C)NC(=O)[C@@H](CCCNC(=N)N)NC(=O)[C@@H](Cc1c[nH]c2ccccc12)NC(=O)[C@H]1CCCN1C(=O)[C@@H](CC(N)=O)NC(=O)[C@@H](CCC(N)=O)NC(=O)[C@@H](CC(=O)O)NC(=O)[C@@H](CC(=O)O)NC(=O)[C@@H](CSC1CC(=O)N(CCNC(=O)CN2CCN(CC(=O)O)CCN(CC(=O)O)CC2)C1=O)NC(=O)[C@@H](C)N)[C@H](C)O)[C@H](C)O)C(=O)N[C@H](Cc1c[nH]c2ccccc12)C(=O)O (stereo partly shown) [copper-64 labelled],,,"C57BL/6 mice, female, B16-F10 melanoma, tumor","intravenous, 24 h",tissue uptake,11.4 %ID/g
CCCC[C@H](NC(=O)CCCCCCCNC(=O)CN1CCN(CC(=O)O)CCN(CC(=O)O)CC1)C(=O)N[C@H]1CC(=O)NCCCC[C@@H](C(N)=O)NC(=O)[C@H](Cc2c[nH]c3ccccc23)NC(=O)[C@H](CCCNC(=N)N)NC(=O)[C@@H](Cc2ccccc2)NC(=O)[C@H](Cc2c[nH]cn2)NC1=O [technetium-99m labelled],,,"C57 mouse, skin","intravenous, 0.037 MBq, 24 h",tissue uptake,0.33 ± 0.36 %ID/g
CAGCCTTTCTTAACCTTACTCGCCCCAGTCTGTCCCGACGTGACTTCCTCGACCCTC (dsDNA),PTGES3,EMSA,"double-stranded DNA, one strand shown",,binding,binds
CC(C)C[C@H](NC(=O)[C@@H](CCCCNC(=O)[C@@H](Cc1ccccc1)NC(=O)CCCCCNC(=O)CN1CCN(CC(=O)O)CCN(CC(=O)O)CCN(CC(=O)O)CC1)NC(=O)[C@H](Cc1ccc(O)cc1)NC(=O)[C@H](CO)NC(=O)[C@H](Cc1c[nH]c2ccccc12)NC(=O)[C@H](Cc1c[nH]cn1)NC(=O)[C@@H]1CCC(=O)N1)C(=O)N[C@@H](CCCNC(=N)N)C(=O)N1CCC[C@H]1C(=O)NCC(N)=O [indium-111 labelled],,,"female athymic nude mice, spleen","intravenous, 0.037 MBq, 2 h",tissue uptake,0.1 ± 0.03 %ID/g
C[C@@H](O)[C@@H]1NC(=O)[C@H](CCCCN)NC(=O)[C@@H](Cc2c[nH]c3ccccc23)NC(=O)[C@H](Cc2ccc(O)cc2)NC(=O)[C@@H](NC(=O)[C@@H](Cc2ccccc2)NC(=O)CN2CCN(CC(=O)O)CCN(CC(=O)O)CCN(CC(=O)O)CC2)CSSC[C@@H](C(=O)N[C@H](CO)[C@@H](C)O)NC1=O [gallium-67 labelled],,gamma counting,"ICR mice, male, kidney","iv, 11 kBq/mouse, 3 h",tissue uptake,6.32 ± 1.13 %ID/g
C=C1CC[C@H](OCCCNC(=O)CCOCCOCCOCCOCCOCCOCCOCCOCCOCCOCCOCCOCCOCCOCCOCCOCCOCCOCCOCCOCCOCCOCCOCCOCCOCCOCCOCCOCCOCCOCCOCCOCCOCCOCCOCCOCCNC(=O)CCN2C(=O)CC(SC[C@H](NC(=O)[C@H](Cc3ccccc3)NC(=O)[C@H](CC(N)=O)NC(=O)[C@H](Cc3c[nH]cn3)NC(=O)[C@@H](NC(=O)[C@H](CC(=O)O)NC(=O)[C@H](CCC(N)=O)NC(=O)[C@H](CC(C)C)NC(=O)[C@H](CCCCN)NC(=O)[C@H](CCCCN)NC(=O)[C@H](CCCNC(=N)N)NC(=O)[C@H](CC(C)C)NC(=O)[C@H](Cc3c[nH]c4ccccc34)NC(=O)[C@H](CCC(=O)O)NC(=O)[C@@H](NC(=O)[C@H](CCCNC(=N)N)NC(=O)[C@H](CCC(=O)O)NC(=O)[C@H](CCSC)NC(=O)[C@H](CO)NC(=O)[C@H](CC(N)=O)NC(=O)[C@H](CC(C)C)NC(=O)[C@H](Cc3c[nH]cn3)NC(=O)[C@H](CCCCN)NC(=O)CNC(=O)[C@H](CC(C)C)NC(=O)[C@H](CC(N)=O)NC(=O)[C@H](Cc3c[nH]cn3)NC(=O)[C@H](CCSC)NC(=O)[C@H](CC(C)C)NC(=O)[C@H](CCC(N)=O)NC(=O)[C@@H](NC(=O)[C@H](CCC(=O)O)NC(=O)[C@H](CO)NC(=O)[C@@H](NC(=O)[C@@H](N)CO)C(C)C)[C@@H](C)CC)C(C)C)C(C)C)C(=O)O)C2=O)C/C1=C/C=C1\CCC[C@]2(C)[C@@H]([C@H](C)CCCC(C)(C)O)CC[C@@H]12 (stereo partly shown),,,"male Sprague-Dawley rat, plasma","subcutaneous, 30 µg/kg, single dose",clearance,0.402 mL/min/kg
"SLCO2B1 (Homo sapiens, UniProt O94956)",O=C(c1ccc(OCCN2CCCCC2)cc1)c1c(-c2ccc(O)cc2)sc2cc(O[C@@H]3O[C@H](C(=O)O)[C@@H](O)[C@H](O)[C@H]3O)ccc12,steady-state kinetics,HEK293 cells,"pH 7.4, 37 °C",Km,48.3 µM
CCCC[C@H](NC(=O)COCCOCCNC(=O)CN1CCN(CC(=O)O)CCN(CC(=O)O)CC1)C(=O)N[C@H]1CC(=O)NCCCC[C@@H](C(N)=O)NC(=O)[C@H](Cc2c[nH]c3ccccc23)NC(=O)[C@H](CCCNC(=N)N)NC(=O)[C@@H](Cc2ccccc2)NC(=O)[C@H](Cc2c[nH]cn2)NC1=O [technetium-99m labelled],,,"C57 mouse, stomach","intravenous, 0.037 MBq, 24 h",tissue uptake,0.02 ± 0.01 %ID/g
"DNA 1 GGCTCGCTACGGCTATACGG / DNA 2 GATTCGTATCGCCTATACCG / DNA 3 CGGTATAGGCGATACGAATCTTTTTCCGTATAGCCGTAGCGAGCC (DNA; 5-nt gap, s/ds junctions)",RAD24/RFC2/RFC3/RFC4/RFC5/DDC1/MEC3/RAD17 (Saccharomyces cerevisiae),cryo-EM,,,binding,binds
TAAAGACGTACAGACCAGACACGGCGGCGGCGGCGGGAGAGGGGATTCCCTGCGCCC (dsDNA),PTGES3,EMSA,"double-stranded DNA, one strand shown",,binding,no binding

# Repeated from above:
Substance,target or system,test,system,conditions,quantity,value
C[C@@H](O)[C@@H]1NC(=O)[C@H](CCCCN)NC(=O)[C@@H](Cc2c[nH]c3ccccc23)NC(=O)[C@H](Cc2ccc(O)cc2)NC(=O)[C@@H](NC(=O)[C@@H](Cc2ccccc2)NC(=O)CN2CCN(CC(=O)O)CCN(CC(=O)O)CCN(CC(=O)O)CC2)CSSC[C@@H](C(=O)N[C@H](CO)[C@@H](C)O)NC1=O [gallium-67 labelled],,gamma counting,"ICR mice, male, kidney","iv, 11 kBq/mouse, 3 h",tissue uptake,6.32 ± 1.13 %ID/g
